Assay results collected from several papers.
Lines come from different studies, so protocols differ. ± marks the error that the study gave.

Compound	test	system	setting	scale	quantity	value
CN(C)CCN(Cc1ccccc1)C(=O)c1cc(-c2ccc(F)cc2)n2nc(C(C)(C)C)cc2n1		C57BL/6 x SJL wild-type mouse	subcutaneous, 35 mg/kg		blood concentration	~3000 nM
C#Cc1c(F)ccc2cc(O)cc(-c3ncc4c(N5CC6CCC(C5)N6C(=O)/C(C)=C(/C)C(=O)OCCCC)nc(OC[C@@]56CCCN5C[C@H](F)C6)nc4c3F)c12	chemical stability	simulated intestinal fluid	1 µM, 30 min		compound remaining	93.8%
[2H]C([2H])([2H])C([2H])([2H])C([2H])([2H])OC(C(=O)OC1CCNCC1)(c1ccccc1)c1ccccc1		healthy Japanese male subjects, plasma	oral, 15 mg, day 1, mean		tmax	4.9 h
O=c1c2cc(Cl)ccc2sc2c(NCc3ccccc3)nc3ccccc3c12		BALB/c nude mice	i.p., 30 mg/kg		body weight	19.5 ± 1.24 g
Nc1nc(Nc2ccc(Cl)cc2)nn1S(=O)(=O)c1ccc2ccccc2c1		male BALB/c mice	oral, 14 (unit not given)		LD50	3930 mg/kg
O=P1(NCCCl)NCCCO1 (stereo not drawn)		rat, plasma	intravenous, 10 mg/kg CP, together with: ketoconazole 0 mg/kg		AUC(0-inf)	1170 ± 144 ng·h/mL
CC[C@H](C)[C@@H]1NC(=O)[C@H](CCCCN)NC(=O)[C@H](CCCCN)NC(=O)[C@H](Cc2ccc(O)cc2)NC(=O)[C@H](CC(C)C)NC(=O)[C@@H]2CCCN2C(=O)[C@H](C)NC(=O)CNC(=O)CNC(=O)[C@H](CO)NC(=O)CNC(=O)CNC(=O)[C@H](CO)NC(=O)[C@H](CCC(=O)O)NC(=O)[C@H](CC(C)C)NC(=O)[C@H](CC(C)C)NC(=O)[C@H](CCCCN)NC(=O)[C@H](CCCCN)NC(=O)[C@H]([C@@H](C)CC)NC(=O)[C@H]([C@@H](C)CC)NC(=O)[C@H](CCCCN)NC(=O)[C@H](CCCCN)NC(=O)[C@H](Cc2ccc(O)cc2)NC(=O)[C@H](CC(C)C)NC(=O)[C@@H]2CCCN2C(=O)[C@H](C)NC(=O)CNC(=O)CNC(=O)[C@H](CO)NC(=O)CNC(=O)CNC(=O)[C@H](CO)NC(=O)[C@H](CCC(=O)O)NC(=O)[C@H](CC(C)C)NC(=O)[C@H](CC(C)C)NC(=O)[C@H](CCCCN)NC(=O)[C@H](CCCCN)NC(=O)[C@H]([C@@H](C)CC)NC1=O	hemolysis	uninfected human erythrocytes	1 h		HC10	92.7 ± 10.9 µM
COc1ccc(N2CCOCC2)c2sc(NC(=O)c3ccnc(CN4CCCC4)c3)nc12		Wistar rat, plasma (total)	oral, 15 mg/kg/day, 14 days		steady-state plasma concentration	3950 ng/mL
COc1cc2c3c(c4cc(OC)c(OC)cc4c2cc1OC)CN1CCCCC1C3 (stereo not drawn)		Sprague-Dawley rat, male	intravenous, dose not given		AUC(0-inf)	503 ng·h/mL
CCNc1cc2[o+]c3cc(NCC)c(C)cc3c(-c3ccccc3C(=O)OCCOCC[18F])c2cc1C		rat, muscle	120 min		tissue uptake	0.14 ± 0.02 %ID/g
CC[C@H](C)[C@H](NC(=O)[C@H](CC(C)C)NC(=O)[C@H]1CCCN1C(=O)[C@@H](CO)NC(=O)[C@H](N)CC(C)C)C(=O)N[C@@H](Cc1ccccc1)C(=O)N[C@H](C(=O)N[C@H](C(=O)N[C@H](C(=O)N1CCC[C@H]1C(=O)N[C@@H](CC(=O)O)C(=O)N[C@@H](C(=O)O)[C@H](C)O)[C@@H](C)O)[C@@H](C)O)C(C)C	flow cytometry	C57BL/6 mouse, footpad tumour, tumour and lymph nodes	dose not given	relative to: negative control	CCR7+ dendritic cells	no effect
CC(C)[C@H](NC(=O)CNC(=O)[C@H](CCC(N)=O)NC(=O)[C@H](C)N)C(=O)O		healthy male volunteers	intravenous, 45 mg/kg/h, 2 h, together with: LPS 2 ng/kg		subjects with Definitely related AE	0%
O=P([O-])([O-])Oc1ccc(-c2cc(=S)ss2)cc1.[Na+].[Na+]	HPLC	PBS	48 h, pH 7.4, 25 °C		solubility	1690 µg/mL
CC(C)[C@H](NC(=O)CNC(=O)[C@H](CCC(N)=O)NC(=O)[C@H](C)N)C(=O)O		human	1 to 30 mg/kg, single dose		tolerability	not toxic
CSCC[C@@H]1NC(=O)[C@@H]2CSSC[C@H](NC(=O)[C@H](CO)NC(=O)[C@H](C)N)C(=O)N[C@@H](CCCNC(=N)N)C(=O)N[C@@H]([C@@H](C)O)C(=O)N3CCC[C@H]3C(=O)N[C@@H](CCCCN)C(=O)N[C@@H](CC(=O)O)C(=O)N[C@H]3CSSC[C@H](NC(=O)[C@H](CCCCN)NC(=O)[C@H](CCCNC(=N)N)NC(=O)[C@H](CC(N)=O)NC1=O)C(=O)N[C@@H](CCCCN)C(=O)N[C@H]1CSSC[C@H](NC(=O)[C@@H]4CCCN4C(=O)[C@H](CC(=O)O)NC(=O)[C@H](C)NC3=O)C(=O)N[C@@H](C)C(=O)N[C@@H](CCCCN)C(=O)N[C@@H](CCC(=O)O)C(=O)N[C@@H]([C@@H](C)O)C(=O)NCC(=O)N[C@@H](CSSC[C@@H](C(N)=O)NC(=O)[C@H](CCCNC(=N)N)NC(=O)[C@H](CC(N)=O)NC1=O)C(=O)N1CCC[C@H]1C(=O)N[C@@H](Cc1ccc(O)cc1)C(=O)NCC(=O)N[C@@H](CCCCN)C(=O)N2		DA rat, pristane-induced arthritis, serum	subcutaneous, 0.1 mg/kg once weekly, end of 21-day trial		alkaline phosphatase	54.8 U/L
NS(=O)(=O)NCC(F)(F)c1ccccc1F	6 Hz psychomotor seizure test	mouse		relative to: rotarod TD50 over 6 Hz ED50	therapeutic index	11.4
COC(=O)C[C@](O)(CCCC(C)(C)OC(C)=O)C(=O)O[C@@H]1C(OC)=C[C@]23CCCN2CCc2cc4c(cc2[C@H]13)OCO4		CD1 mouse, bone marrow	subcutaneous, 1 mg/kg, 8 h, below quantification limit 1.00 ng/mL		tissue concentration	not detected
CC[C@H](C)C(=O)N1CCC(NC(=O)Nc2ccc(OC(F)(F)F)c(F)c2)CC1		human, plasma	oral, 16 mg, single dose, healthy volunteers		AUC	4450 ng·h/mL
CCCCCCCCCCCCC(=O)O.O=C1CCCC2C3CCCN4CCCC(CN12)C34 (stereo not drawn)	electrical conductivity	water	313.15 K, critical micelle concentration		standard Gibbs energy of micellization	-8.8 kcal/mol
Cc1ccc(/C=C/C(=O)O)cc1-c1cc2c(cc1C)C(C)(C)CCC2(C)C		Sprague-Dawley rat, male, plasma	oral, 100 mg/kg, 12 h, sesame oil vehicle		LDL level	5 ± 1.5 mg/dL
N=C(N)NCc1ccc(C(=O)NCCCC[C@H](NC(=O)CCCCCCC(=O)NCCCC[C@H](NC(=O)N[C@@H](CCC(=O)O)C(=O)O)C(=O)O)C(=O)O)cc1[131I]		SCID mouse, PC-3 xenografts, thyroid	2 h		tissue uptake	0.31 ± 0.23 %ID/g
Cc1ccccc1CN1CCC(O)(c2ccc(Cl)c(C(F)(F)F)c2)CC1		female BALB/c mouse, serum	intraperitoneal, 50 mg/kg		intercompartmental clearance	4.9 mL/min
CC[C@H](C)[C@@H]1NC(=O)[C@H](CCCCN)NC(=O)[C@H](CCCCN)NC(=O)[C@H](Cc2ccc(O)cc2)NC(=O)[C@H](CC(C)C)NC(=O)[C@@H]2CCCN2C(=O)[C@H](C)NC(=O)CNC(=O)CNC(=O)[C@H](CO)NC(=O)CNC(=O)CNC(=O)[C@H](CO)NC(=O)[C@H](CCC(=O)O)NC(=O)[C@H](CC(C)C)NC(=O)[C@H](CC(C)C)NC(=O)[C@H](CCCNC(=N)N)NC(=O)[C@H](CCCCN)NC(=O)[C@H]([C@@H](C)CC)NC(=O)[C@H]([C@@H](C)CC)NC(=O)[C@H](CCCCN)NC(=O)[C@H](CCCCN)NC(=O)[C@H](Cc2ccc(O)cc2)NC(=O)[C@H](CC(C)C)NC(=O)[C@@H]2CCCN2C(=O)[C@H](C)NC(=O)CNC(=O)CNC(=O)[C@H](CO)NC(=O)CNC(=O)CNC(=O)[C@H](CO)NC(=O)[C@H](CCC(=O)O)NC(=O)[C@H](CC(C)C)NC(=O)[C@H](CC(C)C)NC(=O)[C@H](CCCNC(=N)N)NC(=O)[C@H](CCCCN)NC(=O)[C@H]([C@@H](C)CC)NC1=O	hemolysis	uninfected human erythrocytes	1 h		HC10	18 µM
CCN(Cc1ccccc1)C(=O)CCc1nc(CN2CCN(C(=O)Cc3ccc(OC)c(OC)c3)CC2)no1		mouse	intravenous		LD50	67.23 ± 0.5 mg/kg
CC(=O)[O-].CN1CCCN2CCN(CCCN(Cc3ccccc3)CC2)CC1.F[P-](F)(F)(F)(F)F.[Co+2]	cyclic voltammetry, measured: second Co2+/Co3+ couple	acetonitrile		relative to: SHE	E1/2	0.564 V
C/C=C/C=C/C/C=C/CCCCCCCc1cccc(O)c1O		female Kunming mice tumour-bearing, kidneys	intravenous, 10 mg/kg, 0.083 h		tissue concentration	22300 ± 2630 ng/g
N=C(N)NCc1ccc(C(=O)NCCCC[C@H](NC(=O)CCCCCCC(=O)NCCCC[C@H](NC(=O)N[C@@H](CCC(=O)O)C(=O)O)C(=O)O)C(=O)O)cc1[211At]		SCID mouse, PC-3 xenografts, brain	2 h		tissue uptake	0.08 ± 0.02 %ID/g
CN(C)C(CNC(=O)Nc1cc(C(F)(F)F)ccc1N1CCOCC1)c1ccncc1 (stereo not drawn)		mouse, serum	intraperitoneal, 180 mg/kg single dose		serum osmolarity	311 mmol/L
CCC(CC)OC1C=C(C(=O)OC(C)OC(=O)C(N)C(C)C)CC(NC(=N)N)C1NC(C)=O (mixture of isomers)		mice, plasma	IV, 1 mg/kg, 24 h		AUC(0-24 h)	641 ± 52 ng·h/mL
CN[C@](C)(C[18F])C(=O)O		SCID mouse U87 xenograft, spleen	60 min, post injection		tissue uptake	8.3 ± 3.7 %ID/g

Some of these lines once more:
Compound	test	system	setting	scale	quantity	value
CC(C)[C@H](NC(=O)CNC(=O)[C@H](CCC(N)=O)NC(=O)[C@H](C)N)C(=O)O		human	1 to 30 mg/kg, single dose		tolerability	not toxic
Nc1nc(Nc2ccc(Cl)cc2)nn1S(=O)(=O)c1ccc2ccccc2c1		male BALB/c mice	oral, 14 (unit not given)		LD50	3930 mg/kg
CC(C)[C@H](NC(=O)CNC(=O)[C@H](CCC(N)=O)NC(=O)[C@H](C)N)C(=O)O		healthy male volunteers	intravenous, 45 mg/kg/h, 2 h, together with: LPS 2 ng/kg		subjects with Definitely related AE	0%
Cc1ccc(/C=C/C(=O)O)cc1-c1cc2c(cc1C)C(C)(C)CCC2(C)C		Sprague-Dawley rat, male, plasma	oral, 100 mg/kg, 12 h, sesame oil vehicle		LDL level	5 ± 1.5 mg/dL
